{"data": "Published values collected from several papers", "cell line": "PC-3", "note": "Protocols differ between the studies behind these lines."}
{"SMILES": "CC(C)C12OC1C1OC13C1(C)CCC4=C(COC4=O)C1CC1OC13C2OC(=O)CCCOC1OC(CO)C(O)C(O)C1O (stereo not drawn)", "test": "cell growth, [3H]-thymidine incorporation", "conditions": "48 h, 1% oxygen hypoxia", "IC50 [µM]": 0.081}
{"SMILES": "COc1ccc2sc3c(c2c1)SCCNC3=O", "test": "cell growth or viability, MTT", "IC50 [µM]": 24}
{"SMILES": "CC[C@H](C)[C@H](NC(=O)[C@H](CCCCN)NC(=O)[C@H](CCCCN)NC(=O)[C@H](C)NC(=O)[C@@H](NC(=O)[C@H](C)NC(=O)[C@H](CC(C)C)NC(=O)[C@H](CC(C)C)NC(=O)[C@H](C)NC(=O)[C@H](CCCCN)NC(=O)[C@H](CC(C)C)NC(=O)[C@H](CC(N)=O)NC(=O)[C@@H](N)CC(C)C)C(C)C)C(=O)N[C@@H](CC(C)C)C(N)=O", "test": "cell growth or viability, MTT", "IC50 [µM]": 6.29}
{"SMILES": "CCCCCCCCc1ccc(C(=O)N[C@@H](CO)C(=O)N[C@H](C(=O)N[C@@H](C)C(=O)N[C@H](C(N)=O)[C@@H](C)CC)[C@@H](C)OP(=O)(O)O)cc1", "test": "cell growth or viability, MTT", "conditions": "72 h", "IC50 [µM]": 41.5}
{"SMILES": "CC(C)C[C@H](NC(=O)[C@H](C)NC(=O)[C@H](C)NC(=O)[C@H](CCC(N)=O)NC(=O)[C@H](C)NC(=O)[C@H](CO)NC(=O)[C@H](CC(C)C)NC(=O)[C@H](C)NC(=O)[C@@H](NC(=O)[C@H](C)NC(=O)[C@H](Cc1ccc(O)cc1)NC(=O)[C@H](CO)NC(=O)[C@H](CCCCN)NC(=O)[C@H](C)NC(=O)[C@H](Cc1ccccc1)NC(=O)[C@H](CCCCN)NC(=O)[C@H](C)NC(=O)[C@H](Cc1ccccc1)NC(=O)[C@H](CCCCN)NC(=O)[C@H](CCCCN)NC(=O)[C@H](C)NC(=O)[C@H](Cc1ccccc1)NC(=O)[C@H](CCCCN)NC(=O)[C@H](C)NC(=O)[C@H](Cc1ccccc1)NC(=O)[C@H](CCCCN)NC(=O)[C@H](CCCCN)NC(=O)[C@H](C)NC(=O)[C@H](Cc1ccccc1)NC(=O)[C@H](CCCCN)NC(=O)[C@H](C)NC(=O)[C@H](Cc1ccccc1)NC(=O)[C@@H](N)CCCCN)C(C)C)C(=O)N[C@@H](C)C(=O)N[C@@H](CCCNC(=N)N)C(=O)N[C@@H](CCCNC(=N)N)C(=O)O", "test": "viable cell number, MTS", "conditions": "6 h", "IC50 [µM]": 5.5}
{"SMILES": "Cc1nn(-c2ccccc2)c(O)c1C(c1cccs1)c1c(C)nn(-c2ccccc2)c1O", "test": "cell growth or viability, MTT", "conditions": "48 h", "IC50 [µM]": "> 40"}
{"SMILES": "O=C(C[P+]([Au-][Cl])(c1ccccc1)c1ccccc1)[O][Ti+2][O]C(=O)C[P+]([Au-][Cl])(c1ccccc1)c1ccccc1.c1cc[cH-]c1.c1cc[cH-]c1", "test": "cell viability, XTT", "conditions": "24 h", "IC50 [µM]": 51.7}
{"SMILES": "CCc1ccc(C(c2c(C)nn(-c3ccccc3)c2O)c2c(C)nn(-c3ccccc3)c2O)cc1", "test": "cell growth or viability, MTT", "conditions": "48 h", "IC50 [µM]": 30.6}
{"SMILES": "CCCCCCCCCc1ccc(C(=O)N[C@@H](CO)C(=O)N[C@H](C(=O)N[C@@H](C)C(=O)N[C@H](C(N)=O)[C@@H](C)CC)[C@@H](C)OP(=O)(O)O)cc1", "test": "cell growth or viability, MTT", "conditions": "72 h", "IC50 [µM]": 27}
{"SMILES": "Cc1nn(-c2ccccc2)c(O)c1C(c1ccc(F)cc1)c1c(C)nn(-c2ccccc2)c1O", "test": "cell growth or viability, MTT", "conditions": "48 h", "IC50 [µM]": 35.9}
{"SMILES": "COc1cc(/C=C(\\C#N)C(=O)Nc2nnc(C(F)(F)F)s2)ccc1OC(=O)N1CCN(C(=O)CCCC(=O)NCCCC[C@@H]2NC(=O)[C@@H](Cc3ccc(O)cc3)NC(=O)[C@H](CC(=O)O)NC(=O)CNC(=O)[C@H](CCCNC(=N)N)NC2=O)CC1", "test": "cytotoxicity, MTT", "conditions": "48 h", "IC50 [µM]": "> 100"}
{"SMILES": "Cc1nn(-c2ccccc2)c(O)c1C(c1ccc([N+](=O)[O-])cc1)c1c(C)nn(-c2ccccc2)c1O", "test": "cell growth or viability, MTT", "conditions": "48 h", "IC50 [µM]": 35.4}
{"SMILES": "C1CCN(C2CCNCC2)CC1.CCCC(CCC)C(=O)[O][Pt]([OH])([Cl])[Cl].CCCCN", "test": "cell growth or viability", "IC50 [µM]": 16.8}
{"SMILES": "Cc1nn(-c2ccccc2)c(O)c1C(c1ccc(N(C)C)cc1)c1c(C)nn(-c2ccccc2)c1O", "test": "cell growth or viability, MTT", "conditions": "48 h", "IC50 [µM]": "> 40"}
{"SMILES": "CCc1c2c(nc3ccc(O)cc13)-c1cc3c(c(=O)n1C2)COC(=O)[C@@]3(CC)OC(=O)[C@H](CC(C)C)NC(=O)[C@H](CCC(N)=O)NC(=O)[C@H](CC(C)C)NC(=O)[C@H](CCCCN)NC(=O)[C@H](CO)NC(=O)[C@H](CO)NC(=O)[C@H](Cc1c[nH]cn1)NC(=O)COCCOCCOCCNC(=O)CCCCC(=O)N1Cc2ccccc2-c2c(nnn2CCOCCOCCOCCOCCC(=O)N[C@@H](Cc2c[nH]cn2)C(=O)N[C@@H](CO)C(=O)N[C@@H](CO)C(=O)N[C@@H](CCCCN)C(=O)N[C@@H](CC(C)C)C(=O)N[C@@H](CCC(N)=O)C(=O)N[C@@H](CC(C)C)C(=O)O[C@@H](C(=O)O[C@H]2C[C@@]3(O)[C@@H](OC(=O)c4ccccc4)[C@@H]4[C@]5(OC(C)=O)CO[C@@H]5C[C@H](OC)[C@@]4(C)C(=O)[C@H](OC)C(=C2C)C3(C)C)[C@@H](NC(=O)OC(C)(C)C)c2ccccc2)-c2ccccc21", "test": "cell growth or viability, XTT", "conditions": "72 h", "IC50 [µM]": 0.00635}
{"note": "Some of these lines once more:"}
{"SMILES": "Cc1nn(-c2ccccc2)c(O)c1C(c1ccc([N+](=O)[O-])cc1)c1c(C)nn(-c2ccccc2)c1O", "test": "cell growth or viability, MTT", "conditions": "48 h", "IC50 [µM]": 35.4}
{"SMILES": "C1CCN(C2CCNCC2)CC1.CCCC(CCC)C(=O)[O][Pt]([OH])([Cl])[Cl].CCCCN", "test": "cell growth or viability", "IC50 [µM]": 16.8}
